Measurements of several laboratories.
Lines come from different studies, so protocols differ. “And” joins repeats or separate records; there may be more than shown. Numbers after ± are the reported error.

| SMILES | test | system | setting | scale | quantity | value |
| --- | --- | --- | --- | --- | --- | --- |
| CC1=CC(C)(C)N=C2C=CC(=O)C=C12 | LC-MS/MS | piglets, liver | oral, 50 mg/kg feed of ethoxyquin, 42 days, after glucuronidase | – | residue concentration | 1.5 ± 1.6 ng/g |
| COCCOCCOCCOCCC(=O)NCc1cc(CNC(=O)CCOCCOCCOCCOC)cc(-c2cc3cc4nc(c(-c5ccc(CCC(=O)O)cc5)c5[nH]c(cc6nc(c(OC)c2[nH]3)CC6(C)C)cc5-c2cc(CNC(=O)CCOCCOCCOCCOC)cc(CNC(=O)CCOCCOCCOCCOC)c2)CC4(C)C)c1 | – | DMF | room temperature | – | Qy emission FWHM | 25 nm |
| CCCC[C@H](NC(=O)[C@H](CC(C)C)N(C)C(=O)CNC(=O)[C@@H](NC(=O)[C@H](Cc1ccccc1)NC(=O)[C@H](CCCCN)NC(=O)[C@@H](N)CC(=O)O)C(C)C)C(N)=O | – | anesthetized Gottingen minipig | subcutaneous, 10 µg/kg | baseline: baseline | heart rate | 3.15 ± 4.88% |
| C[N+](C)(C)CC(CC(=O)[O-])OC(=O)CCC(=O)Nc1ccn([C@@H]2O[C@H](CO)[C@@H](O)C2(F)F)c(=O)n1 (stereo partly drawn) | – | THU-treated rat plasma | 125.00 ng/mL, 2 months, -80 °C, frozen storage, mid QC | – | measured concentration | 111 ± 2.3 ng/mL |
| CN(C(=O)c1ccn2ncc(-c3ccc(C(N)=O)cc3)c2c1)c1ccc(C#N)cn1 | – | neonatal male Friesian-Holstein calf, plasma | oral, 5 mg/kg, days 1 and 7 | – | AUC | 1.9 µM·h |
| CCCC(CCC(=O)O)NC(=O)c1ccc(O)c(OC)c1 (stereo not drawn) | LC-MS extracted ion chromatogram | Sprague-Dawley rat, male and female, pooled plasma | oral, 200 mg/kg, 1 h | – | peak area | 172000 cps |
| C=CC(=O)Nc1cc(Nc2nccc(-c3cn(C4CC4)c4ccccc34)n2)c(OC)cc1NC | LC-RAM/HRMS | human male, plasma | oral, 110 mg, 2 h | baseline: total radioactivity | share of radioactivity | 8.11% |
| Cn1c(=O)oc2ccc(-c3ccc(CC(C#N)NC(=O)C4CNCCCO4)c(F)c3)cc21 (stereo not drawn) | refers to: white blood cells in urine | human volunteers | 40 mg single dose, fasted | – | share of subjects with TEAE | 0% |
| CCCCN1C(=O)c2cccc3c(NCCCCN4CCOCC4)ccc(c23)C1=O | – | water | pH 6 | baseline: fluorescein/0.1 N NaOH | fluorescence quantum yield | 0.34 |
| COc1cc2c(cc1OC)CN(CCCCn1ccc3cc(OCC[18F])ccc31)C2 | – | ICR mice, male, small intestine | intravenous, 30 min | – | uptake | 15.8 ± 1.4 %ID/organ |
| O=C([O-])CN1CCN(CC(=O)[O-])CCN(CC(=O)NCC2CCC(C(=O)NC(Cc3ccc4ccccc4c3)C(=O)NCCCCC(NC(=O)NC(CCC(=O)O)C(=O)O)C(=O)O)CC2)CCN(CC(=O)[O-])CC1.[44Sc+3] (stereo not drawn) | PET/CT dosimetry, OLINDA/EXM | human, kidneys | – | – | residence time | 0.121 h and 0.215 h and 0.361 h |
| Cc1cccc(Cn2ncc3c4cc(F)c(CN(C)C)cc4n(C)c3c2=O)n1 | – | rd10 mouse, aged P70, retina | intravitreal, 1 µM final vitreous | – | retinal concentration | < 5 ng/g |
| O=c1nc(NO)ccn1[C@@H]1O[C@H](CO)[C@@H](O)[C@H]1O | RT-PCR, refers to: CYP2E1 | rats, CFA-induced arthritis, liver | oral, 80 mg/kg twice daily, 5 days | baseline: untreated arthritic rats | mRNA level | < 0.5 fold |
| Cc1[nH]c(/C=C2\C(=O)Nc3ccc(F)cc32)c(C)c1NC(=O)CCN1CCN(C)CC1 | – | dog plasma | 80 ng/mL nominal, three freeze-thaw cycles at -20 °C | – | measured concentration | 75.5 ng/mL |
| COc1cc(OC)cc(C2=C3C(C)=C(I)C(C)=[N+]3[B-](F)(F)n3c(/C=C/c4c[nH]c5ccccc45)c(I)c(C)c32)c1 | – | THF | – | – | Stokes shift | 979 cm⁻¹ |
| CCCC[C@H](NC(=O)CN1CCC(NC(=O)CN2CCN(CC(=O)O)CCN(CC(=O)O)CCN(CC(=O)O)CC2)CC1)C(=O)N[C@H]1CC(=O)NCCCC[C@@H](C(N)=O)NC(=O)[C@H](Cc2c[nH]c3ccccc23)NC(=O)[C@H](CCCNC(=N)N)NC(=O)[C@@H](Cc2ccccc2)NC(=O)[C@H](Cc2c[nH]cn2)NC1=O [gallium-68 labelled] | – | C57BL/6J mice male B16-F10 tumour, pancreas | 1 h post injection, unblocked | – | tissue uptake | 0.1 ± 0.1 %ID/g |
| Nc1nc(-n2nnc3c2CCC2C(CO)C2CC3)nc2c1ncn2C1OC(CO)C(O)C1O (mixture of isomers) | fluorescence lifetime | methanol | – | – | fractional contribution τ3 | 0.05% |
| O=C(CCc1ccc(CNC(C(=O)OC2CCCC2)C2CCCCC2)cn1)NO (stereo not drawn) | – | human, plasma | oral, 20 mg once daily, day 7, geometric mean | – | AUC(0-t) | 94.4 ng·h/mL |
| CC(C)(O)c1ncc([S@](N)(=O)=NC(=O)Nc2c3c(cc4c2CCC4)CCC3)s1 | – | healthy human volunteers, plasma | oral, 10 mg once daily, day 14, capsule formulation | – | dose-normalised AUC(0-tau) | 1120 ng·h/mL/mg |
| Cc1cnc(Nc2ccc(OCCOc3ccc(/N=N/c4ccc(C(=O)NCCC(=O)O)cc4)cc3C(=O)O)cc2)nc1Nc1cccc(S(=O)(=O)NC(C)(C)C)c1 | – | C57BL/6 mouse, female, colon tissue | oral, 10 mg/kg, 0.5 to 24 h | – | concentration | < 2 ng/g |
| O=C(c1cccc(N=Nc2ccc(OC3CC(N4CCCCC4)C3)cc2)c1)N1CCCC1 (stereo not drawn) | – | Tris-HCl buffer, 1% DMSO-d6 | 25 µM, pH 7.4, illumination 360 ± 20 nm | – | photoisomerization half-life | 4 ± 0.2 s |
| CCc1cc(Nc2nc(-c3ccc(-n4cnc(C)c4)c(F)c3)cs2)c(C)cc1C | – | human, plasma | oral, 400 mg once daily, day 14, multiple dose, geometric mean | – | apparent clearance (CL/F) | 27000 mL/h |
| C=CC(=O)Nc1cc(Nc2nccc(-c3cn(C4CC4)c4ccccc34)n2)c(OC)cc1N(C)CCNC | radio-HPLC, co-eluting peaks pooled | human male, urine | oral, 110 mg, 0 to 96 h, sample holds 4.16% dose | baseline: sample radioactivity | share of radioactivity | 28.8% |
| N=C(N)NCCC[C@@H]1NC(=O)[C@H](Cc2c[nH]c3ccccc23)NC(=O)[C@@H](CC2CCCCC2)NC(=O)[C@@H]2CCCN2C(=O)[C@@H](NC(=O)CCc2ccccc2)CCCNC1=O | – | C57BL/6J mice, brain | subcutaneous, 1 mg/kg, two-compartment model | – | apparent peripheral volume (V2/F) | 0.07 µg/(ng/g) |
| C[C@H](CN(C)Cc1ccccc1)NC(=O)c1ccc(-c2noc(C(F)(F)[18F])n2)cc1 | PET imaging | female Sprague-Dawley rats, hippocampus | intravenous, 30 min | – | tissue uptake | 1.9 ± 0.27 SUV |
| CC1=C(/C=C/C(=O)N2CCN(C(N)=O)CC2)C(C)(C)CCC1 | – | male mouse, plasma | oral, 120 mg/kg, single dose | – | half-life | 4.24 h |
| CC[C@@H](C)[C@@H](NC(=O)[C@@H](C)NC(=O)[C@@H](CCCCN)NC(=O)[C@@H](CC(C)C)NC(=O)[C@@H](C)NC(=O)[C@H](NC(=O)[C@@H](CCCCN)NC(=O)[C@@H](CC(C)C)NC(=O)[C@H](NC(=O)[C@@H](CCCCN)NC(=O)[C@@H](CCCCN)NC(=O)[C@@H](CCCCN)NC(=O)[C@@H](C)NC(=O)[C@@H](CCCCN)NC(=O)[C@@H](CO)NC(=O)[C@@H](Cc1ccccc1)NC(=O)[C@H](NC(=O)[C@@H](CCCCN)NC(=O)[C@@H](CC(C)C)NC(=O)[C@@H](Cc1ccccc1)NC(=O)[C@@H](CO)NC(=O)[C@@H](CCCCN)NC(=O)[C@@H](Cc1c[nH]c2ccccc12)NC(=O)[C@@H](CCCCN)NC(C)=O)[C@H](C)O)C(C)C)[C@H](C)O)C(=O)N[C@H](CO)C(=O)N[C@H](CCCCN)C(N)=O | circular dichroism | benign aqueous buffer | pH 7.0, 5 °C, at 222 nm | negative is more helical | mean residue molar ellipticity | 900 deg cm2/dmol |
| CC(C)c1cnc(-c2cc(Cl)ccc2F)cc1Nc1ccncc1C(=O)NC(CO)CO | – | patients, phase I monotherapy | oral, dose not given, grade 1 | – | patients with anaemia | 0% |
| Cc1c(C)c(C)[c-](C)c1C.[C-]#[O+].[C-]#[O+].[C-]#[O+].[Cl-].[Cl-].[Cl-].[Ir+3].[Re+].c1cnc(-c2ncccn2)nc1 | cyclic voltammetry | 0.1 M Na2SO4, gold electrode | scan rate 50 mV/s | – | redox potential | -0.512 V vs Ag/AgCl |
| CC(C)C[C@@H](N)C(=O)N[C@H](CC(=O)O)C(=O)N[C@@H](C(=O)N[C@H](Cc1ccccc1)C(=O)N[C@H](CC(C)C)C(=O)N[C@H](Cc1ccc(O)cc1)C(=O)N[C@H](CO)C(=O)N[C@H](CCC(=O)O)C(=O)O)C(C)C | – | 4T1 and MC-38 tumour mice | dose not given | – | AST level | no effect |

Repeated from above:
| SMILES | test | system | setting | scale | quantity | value |
| --- | --- | --- | --- | --- | --- | --- |
| Nc1nc(-n2nnc3c2CCC2C(CO)C2CC3)nc2c1ncn2C1OC(CO)C(O)C1O (mixture of isomers) | fluorescence lifetime | methanol | – | – | fractional contribution τ3 | 0.05% |
| Cc1c(C)c(C)[c-](C)c1C.[C-]#[O+].[C-]#[O+].[C-]#[O+].[Cl-].[Cl-].[Cl-].[Ir+3].[Re+].c1cnc(-c2ncccn2)nc1 | cyclic voltammetry | 0.1 M Na2SO4, gold electrode | scan rate 50 mV/s | – | redox potential | -0.512 V vs Ag/AgCl |
| O=C([O-])CN1CCN(CC(=O)[O-])CCN(CC(=O)NCC2CCC(C(=O)NC(Cc3ccc4ccccc4c3)C(=O)NCCCCC(NC(=O)NC(CCC(=O)O)C(=O)O)C(=O)O)CC2)CCN(CC(=O)[O-])CC1.[44Sc+3] (stereo not drawn) | PET/CT dosimetry, OLINDA/EXM | human, kidneys | – | – | residence time | 0.121 h and 0.215 h and 0.361 h |
| C[C@H](CN(C)Cc1ccccc1)NC(=O)c1ccc(-c2noc(C(F)(F)[18F])n2)cc1 | PET imaging | female Sprague-Dawley rats, hippocampus | intravenous, 30 min | – | tissue uptake | 1.9 ± 0.27 SUV |
